# Published values collected from several papers.
# A part holds a random share of what one study measured. Changes are numbered by the printed parent chain.

# Study 1 — target: CCND2, cyclin fold, Cln2 fusion (human); method: yeast growth competition, sequencing; medium: yeast; setting: weak parent motif; relative to: not given; reading: higher = stronger binding
# Starting sequence: BRCA2 docking peptide (human); PSIKRNLLNEFDR; partner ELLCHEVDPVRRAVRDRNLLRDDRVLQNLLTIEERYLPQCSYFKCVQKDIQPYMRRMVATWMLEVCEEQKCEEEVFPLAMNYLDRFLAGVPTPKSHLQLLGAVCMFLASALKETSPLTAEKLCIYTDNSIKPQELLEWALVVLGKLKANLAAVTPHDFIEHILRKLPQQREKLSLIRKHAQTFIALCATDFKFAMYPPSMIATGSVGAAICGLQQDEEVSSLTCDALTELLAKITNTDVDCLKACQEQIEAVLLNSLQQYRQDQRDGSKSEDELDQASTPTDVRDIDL
Change,normalised enrichment score
L7M,0.337
D12R,0.415
N9E,-0.0331
E10M,-0.179
L7K,0.126
K4P,0.00873

# Study 2 — method: universal PBM; form: double-stranded DNA, one strand shown; medium: in vitro; concentration: 600 nM; reading: higher = stronger binding
# Target: Sal-like protein 4, full length isoform A (SALL4, Homo sapiens, UniProt Q9UJQ4, residues 1-1053)
# Sequence of UniProt Q9UJQ4 (whole entry, looked up): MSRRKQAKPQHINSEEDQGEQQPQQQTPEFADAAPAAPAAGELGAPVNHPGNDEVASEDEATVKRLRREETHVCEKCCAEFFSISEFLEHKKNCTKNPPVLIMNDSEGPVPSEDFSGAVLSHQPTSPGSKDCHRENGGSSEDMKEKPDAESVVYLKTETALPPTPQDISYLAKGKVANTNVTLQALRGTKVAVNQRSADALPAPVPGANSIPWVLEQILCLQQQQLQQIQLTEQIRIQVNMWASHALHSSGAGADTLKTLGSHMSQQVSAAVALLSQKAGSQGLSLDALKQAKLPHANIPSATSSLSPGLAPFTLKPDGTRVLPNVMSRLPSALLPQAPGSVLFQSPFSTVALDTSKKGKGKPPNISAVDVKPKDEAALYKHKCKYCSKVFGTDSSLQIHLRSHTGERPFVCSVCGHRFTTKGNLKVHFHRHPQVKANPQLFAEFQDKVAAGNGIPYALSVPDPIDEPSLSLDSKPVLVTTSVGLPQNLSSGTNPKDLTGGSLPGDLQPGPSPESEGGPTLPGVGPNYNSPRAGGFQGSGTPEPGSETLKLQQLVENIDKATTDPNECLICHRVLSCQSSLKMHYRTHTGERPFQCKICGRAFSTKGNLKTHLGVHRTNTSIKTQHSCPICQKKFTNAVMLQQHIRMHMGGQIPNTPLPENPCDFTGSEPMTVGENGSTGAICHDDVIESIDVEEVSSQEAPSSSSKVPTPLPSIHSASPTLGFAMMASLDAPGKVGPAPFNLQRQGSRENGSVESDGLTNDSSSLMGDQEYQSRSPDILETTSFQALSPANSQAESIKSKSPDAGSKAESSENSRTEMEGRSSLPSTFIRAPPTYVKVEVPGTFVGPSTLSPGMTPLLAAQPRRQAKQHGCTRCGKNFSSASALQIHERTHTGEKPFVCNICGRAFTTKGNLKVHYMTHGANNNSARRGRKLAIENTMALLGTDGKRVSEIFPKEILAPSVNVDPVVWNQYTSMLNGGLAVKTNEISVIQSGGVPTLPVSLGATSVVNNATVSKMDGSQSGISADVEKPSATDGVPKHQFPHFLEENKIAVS
# Setting: 8-mer, flanks averaged, mean of replicates
Oligonucleotide,E-score
TACCAGCA,-0.0472
ATTTACTC,0.158
ATACCGTA,0.00282
CACAAGAG,0.0144
CAGATACG,-0.0642
CTCCGTAC,-0.294
ACACCAGG,-0.138
CTTCGGCC,-0.101
AGATCACC,-0.0421

# Study 3 — method: RNA Bind-n-Seq; form: RNA; medium: in vitro; concentration: 365 nM; relative to: no-protein control; reading: higher = stronger binding
# Target: RNA binding protein fox-1 homolog 2, RRM domain, GST-SBP tag (RBFOX2, Homo sapiens, UniProt O43251-10, residues 100-194)
# Setting: natural RNA segment, single round, ends assumed
# Residues (chain): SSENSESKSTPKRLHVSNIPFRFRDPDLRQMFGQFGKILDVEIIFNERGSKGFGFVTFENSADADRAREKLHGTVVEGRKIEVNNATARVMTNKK
Oligonucleotide,RBNS enrichment (R)
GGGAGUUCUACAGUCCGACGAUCAAUCUGAUUCCAGUUAAGCUAUAAACUUGUGGGAUUUUCUUGUAGCCCUAUAGUUCUGUGACUUCAUUUGCUAUACGCUUUAAAUGUGUUGAGCAGCCUAUGAACCUAAAUGGAAUUCUCGGGUGCCAA,0.293
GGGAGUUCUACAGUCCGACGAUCAGAAUUAAAGAUACUACAUAGGGGCCCUUGGGUAAGCAAAUCCAUUUUUCCCAGAGGCUAUCUUGAUUCUUUGGAAUGUUUAAAGUGUGCCUUGCCAGAGAGCUUACGAUUGGAAUUCUCGGGUGCCAA,0.499
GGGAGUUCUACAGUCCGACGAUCUAGGUAUGAAUAAGAUGACUAAGAAUGUAAUGGGGAAGAACUGCCCUGCCUGCCCAUCUCAGAGCCAUAAGGUCAUCUUUGCUAGAGCUAUUUUUACCUAUGUAUUUAUCUGGAAUUCUCGGGUGCCAA,1.63
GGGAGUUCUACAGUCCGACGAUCUUAUUCUGAAUUUUCUACCUUAGUUAUCAUUAAUGUAGUUCCUCAUUGAACAUGUGAUAAUCUAAUACCUGUGAAAACUGACUAAUCAGCUGCCAAUAAUAUCUAAUAUUUGGAAUUCUCGGGUGCCAA,0.466
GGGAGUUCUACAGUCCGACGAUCAACAUUUAAUAUUUGUCCACAUGGUUUUACAAAAGUAAAUCUUAAAUUACUAAGCUUUUCCCAUAUGUUCUCGUACUUUCUCAAAUCCCUAUAAAGAAUUACUUGUUAUCUGGAAUUCUCGGGUGCCAA,0.413
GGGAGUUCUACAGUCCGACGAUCCUCCCUGGAUACUCUUGGCCCACCGCAGAUCUGUAGCCAGUCAGAGGAGGAGGAGAAGGAGCCCCUCAGCAGAGUGGUGCAGUUUCGCUCAGAGCUUGUCUCCUUGGCUUUGGAAUUCUCGGGUGCCAA,0.524

# Further values, each from its own experiment
Molecule,target,assay,system,conditions,how to read,quantity,result
"PhoQ, residues 284 288 289 292 302 303 ASTSDA","PhoP, residues 12 14 15 18 19 NIMAP (Escherichia coli, UniProt P23836)","Sort-seq, item: YFP reporter",E. coli,"PhoQ-PhoP variant library, with: 10 µM Mg2+","relative to: high Mg2+ state, higher = stronger signaling",fold induction,0.594

# Some of these lines once more (study 1):
Change,normalised enrichment score
N9E,-0.0331
E10M,-0.179
L7K,0.126
